Assay results gathered from unrelated publications.
Each line is one published result; not all experiments were run side by side. Numbers after ± are the reported error.

Structure (SMILES) | test | test system | conditions | how to read | quantity | value
NCCCC[C@@H]1NC(=O)[C@@H](Cc2c[nH]c3ccccc23)NC(=O)[C@H](c2ccccc2)NC(=O)[C@@H]2C[C@@H](OC(=O)NCCN)CN2C(=O)[C@H](Cc2ccccc2)NC(=O)[C@H](Cc2ccc(OCc3ccccc3)cc2)NC1=O | radioimmunoassay | healthy human male volunteers, plasma | subcutaneous, 200 µg |  | alpha half-life | 1.7 ± 0.6 h
CCOc1c([C@H](C)n2nc(C)c3c(N)ncnc32)cc(Cl)c(F)c1[C@@H]1CNC(=O)C1 |  | healthy fasted humans, plasma | oral, 10 mg |  | Vz/F geometric mean | 52.9 L
C[C@@]12C[C@@]3(O)O[C@@H](O1)[C@]1(COC(=O)c4ccccc4)[C@H]3C[C@@]12O[C@@H]1O[C@H](CO)[C@@H](O)[C@H](O)[C@H]1O |  | rat plasma QC samples | 11250 ng/mL, 45 days, -80 °C, long-term stability, high QC |  | accuracy | 100 % nominal
CCOc1ccc2c(c1)C(C)=CC(C)(C)N2 | LC-MS/MS | laying hens, liquid whole egg | oral, 50 mg/kg feed, 56 days |  | residue concentration | 21.2 ± 3.1 ng/g
CC[C@H](C)[C@@H]1NC(=O)[C@@H]2CSSC[C@H](NC(=O)[C@H](C(C)C)NC(=O)[C@H]([C@@H](C)CC)NC(=O)[C@H](C(C)C)NC(=O)[C@@H](NC(=O)[C@H](CCCCN)NC(=O)[C@@H](N)CCCNC(=N)N)CSSC[C@@H](C(=O)N[C@@H](CCCNC(=N)N)C(=O)O)NC(=O)[C@H](CC(C)C)NC(=O)[C@H]([C@@H](C)CC)NC1=O)C(=O)N[C@@H](CCCNC(=N)N)C(=O)N[C@@H](CCCNC(=N)N)C(=O)N[C@@H](CC(N)=O)C(=O)N[C@@H](CCCNC(=N)N)C(=O)N[C@@H](CCCNC(=N)N)C(=O)N2 | LC-MS | PBS | 0.1 mg/mL |  | single disulfide form | 8%
Cc1nc(Nc2ncc(C(=O)Nc3c(C)cccc3Cl)s2)cc(N2CCN(CCO)CC2)n1 |  | male C57BL/6 mouse wild type, plasma | intravenous, 10 mg/kg |  | AUC(0-inf) | 3360 ± 314 ng·h/mL
CC[C@H](C)C(=O)O[C@H]1C[C@@H](C)C=C2C=C[C@H](C)[C@H](CC[C@@H]3C[C@@H](O)CC(=O)O3)[C@H]21 | mitochondrial swelling | BALB/cByJ female mouse liver mitochondria | 30 min, added: succinate + rotenone | reference: CaCl2 maximal swelling | EC20 | 71.5 µM
Cn1cnc2c1c(=O)[nH]c(=O)n2C | in situ brain perfusion | rat | no efflux inhibition |  | log intrinsic permeability | -5
C=CC(=O)Nc1cc(Nc2nccc(-c3cn(C)c4ccccc34)n2)c(OC)cc1N(C)CCN(C)C |  | Sprague-Dawley rat, male, plasma | oral, 10 mg/kg, added: avitinib 30 mg/kg single dose on day 7 |  | apparent volume of distribution | 71.7 ± 28 L/kg
C[C@@H]1O[C@@H](OC[C@H]2O[C@@H](Oc3c(-c4ccc(OCCO)c(OCCO)c4)oc4cc(OCCO)cc(O)c4c3=O)[C@H](O)[C@@H](O)[C@@H]2O)[C@H](O)[C@H](O)[C@H]1O | cytochrome c release, ELISA | BALB/cByJ female mouse liver mitochondria | 30 min | reference: alamethicin maximal release | EC20 | > 400 µM
CCCC[C@H](NC(C)=O)C(=O)N[C@H]1CCC(=O)NC[C@@H](C(=O)N[C@@H](Cc2c[nH]c3ccccc23)C(N)=O)NC(=O)[C@H](CCCNC(=N)N)NC(=O)[C@@H](Cc2ccccc2)NC(=O)[C@H](Cc2c[nH]cn2)NC1=O |  | human, plasma | subcutaneous, 0.1 mg, single dose, healthy volunteers |  | Vd/F | 35.1 L
Cn1c(-c2ccc(C(N)=O)cc2F)nnc1C(C)(C)Oc1c(F)cc(Cl)cc1F |  | healthy young Japanese subjects, plasma | oral, 10 mg once daily, day 18, 14 days dosing |  | Cmax median | 172 ng/mL
CC[C@H](C)[C@H](NC(=O)[C@H](Cc1ccccc1)NC(=O)[C@H](CCC(=O)O)NC(=O)[C@H](CCCCNC(=O)COCCOCCNC(=O)COCCOCCNC(=O)CC[C@H](NC(=O)CCCCCCCCCCCCCCCCC(=O)O)C(=O)O)NC(=O)[C@H](C)NC(=O)[C@H](C)NC(=O)[C@H](CCC(N)=O)NC(=O)CNC(=O)[C@H](CCC(=O)O)NC(=O)[C@H](CC(C)C)NC(=O)[C@H](Cc1ccc(O)cc1)NC(=O)[C@H](CO)NC(=O)[C@H](CO)NC(=O)[C@@H](NC(=O)[C@H](CC(=O)O)NC(=O)[C@H](CO)NC(=O)[C@@H](NC(=O)[C@H](Cc1ccccc1)NC(=O)[C@@H](NC(=O)CNC(=O)[C@H](CCC(=O)O)NC(=O)C(C)(C)NC(=O)[C@@H](N)Cc1cnc[nH]1)[C@@H](C)O)[C@@H](C)O)C(C)C)C(=O)N[C@@H](C)C(=O)N[C@@H](Cc1c[nH]c2ccccc12)C(=O)N[C@@H](CC(C)C)C(=O)N[C@H](C(=O)N[C@@H](CCCNC(=N)N)C(=O)NCC(=O)N[C@@H](CCCNC(=N)N)C(=O)NCC(=O)O)C(C)C |  | Caucasian subjects | subcutaneous once weekly, 0.5 mg, geometric mean | reference: steady state over single dose | dose-corrected accumulation ratio | 2.3
CC(=O)Oc1ccccc1C(=O)O | cytochrome c release, ELISA | BALB/cByJ female mouse liver mitochondria | 30 min | reference: alamethicin maximal release | EC20 | > 200 µM
CN1CCN(c2ccc3nc(-c4c(N)c5c(F)cccc5[nH]c4=O)[nH]c3c2)CC1 |  | patients, plasma | oral, 300 mg daily 5 days on 2 off, day 19, AUC 0-24 h minimum, added: gemcitabine and capecitabine |  | AUC | 1200 ng·h/mL
CC(C)(Oc1ccc(C2CC2(Cl)Cl)cc1)C(=O)O (stereo not shown) |  | female Sprague-Dawley rat | oral, 7.5 mg/kg/day, 21 days |  | body weight | 231 ± 9 g
